{"data": "Measurements gathered from unrelated publications", "note": "Values joined by “and” are separate records of one study, mostly repeats; a detail may differ. ± gives the spread as reported."}
{"SMILES": "CNC(=O)CC1C(=O)N(C2CCN(C3CCC(C(C)C)CC3)CC2)c2ccccc21 (centres unmarked)", "test system": "conscious Sprague-Dawley rat", "setting": "intravenous bolus, 100 nmol/kg", "endpoint": "heart rate", "result": "decreased"}
{"SMILES": "FC(F)(F)c1ccc2c(c1)[C@@H]1CNC[C@H]2C1", "test": "two-bottle choice", "test system": "Wistar rat, intermittent 20% ethanol access", "setting": "subcutaneous, 1 mg/kg, 24 h", "endpoint": "ethanol intake", "result": "6 ± 0.4 g/kg"}
{"SMILES": "Cc1nc(Nc2ccc(CC(=O)O)cc2)nc(Nc2ccc(F)c(C(F)(F)F)c2)c1C", "test": "item: PDE4A", "test system": "C57BL/6J mice, high-fat diet, liver", "setting": "intraperitoneal, 0.3 mg/kg daily, 60% fat diet 12 weeks, dosed last four", "scale": "baseline: vehicle", "endpoint": "mRNA level", "result": "no effect"}
{"SMILES": "CN1CCN(S(=O)(=O)c2cc([N+](=O)[O-])ccc2N(CCOS(C)(=O)=O)CCOS(C)(=O)=O)CC1", "test system": "NSG mice, sample BJ PDX", "setting": "intraperitoneal, 25 mg/kg weekly x3", "endpoint": "event-free survival", "result": "> 391 days"}
{"SMILES": "Cc1cn(-c2cc(NC(=O)c3ccc(C)c(Nc4nccc(-c5cccnc5)n4)c3)cc(C(F)(F)F)c2)cn1", "test system": "Homo sapiens", "setting": "300 mg, 12 months", "scale": "direction not given", "endpoint": "ADAS-Cog score", "result": "33.9 ± 10.2"}
{"SMILES": "CNC(=O)c1c(C)oc2cc(Oc3ccnc4cc(OCCN5CCOCC5)ccc34)ccc12", "test": "response or stable disease ≥4 cycles, RECIST 1.0", "test system": "patients with advanced solid tumours", "setting": "dose not given, twice daily dosing", "endpoint": "disease control rate", "result": "64%"}
{"SMILES": "COc1cccc(NCC(F)Cn2c3ccc(Br)cc3c3cc(Br)ccc32)n1 (centres unmarked)", "test": "survival of newborn neurons", "test system": "Mus musculus, BrdU-labelled newborn neurons", "setting": "intraperitoneal, 7 days", "endpoint": "minimum effective dose", "result": "1 mg/kg/day"}
{"SMILES": "O=S(=O)([O-])C(F)(F)C(F)(F)C(F)(F)C(F)(F)C(F)(F)C(F)(F)C(F)(F)C(F)(F)F.[K+]", "test system": "male C57BL/6J mice, EtOH-fed, blood", "setting": "dose not given, added: binge EtOH 5 g/kg", "scale": "baseline: efavirenz", "endpoint": "blood alcohol concentration", "result": "decreased"}
{"SMILES": "O=C(O)C1=CC(=C(c2ccc(O)c(C(=O)O)c2)c2ccc(O)c(C(=O)O)c2)C=CC1=O", "test": "flow cytometry", "test system": "C57BL/6J mouse MC-38 tumour, tumour-infiltrating lymphocytes", "setting": "peritumoral, dose not given, 2 cycles", "scale": "baseline: CD8+ over CD4+", "endpoint": "CD8+/CD4+ ratio", "result": "increased"}
{"SMILES": "C=CCNc1c(O)cc2c(O)c1C[C@@H](C)C[C@H](OC)[C@H](O)[C@@H](C)/C=C(\\C)[C@H](OC(N)=O)[C@@H](OC)/C=C\\C=C(/C)C(=O)N2", "test": "RECIST v1.0", "test system": "human GIST", "setting": "dose not given", "endpoint": "objective response rate", "result": "3%"}
{"SMILES": "NNc1ccccc1", "test": "hydrazine ligation kinetics, absorbance", "setting": "concentration not given, 15 s, added: 2-formylphenylboronic acid", "endpoint": "normalised absorbance", "result": 0.843}
{"SMILES": "C[C@H]1O[C@@H](O[C@H]2CC[C@@]3(C)[C@@H](CC[C@]4(C)[C@@H]3C=C[C@]35OC[C@@]6(CCC(C)(C)C[C@H]63)[C@@H](O)C[C@]54C)[C@]2(C)CO)[C@H](O)[C@@H](O[C@@H]2O[C@H](CO)[C@@H](O)[C@H](O)[C@H]2O)[C@H]1O", "test": "item: PGC-1α", "test system": "chronic-plus-binge ethanol-fed mice, AAV8-TBG-Null, liver", "setting": "dose not given, high dose, unit not given", "scale": "baseline: AAV8-TBG-Null ethanol group", "endpoint": "mRNA level", "result": "2.75 and 1.72 and 1.76 and 2.4"}
{"SMILES": "CC[C@@H](C)[C@@H](NC(=O)[C@@H](Cc1ccc(O)cc1)NC(=O)[C@H]1CCCN1C(=O)[C@@H](CCCNC(=N)N)NC(=O)[C@H](N)Cc1c[nH]cn1)C(=O)N[C@H](C)C(=O)N[C@H](Cc1c[nH]cn1)C(=O)N[C@H](CCCNC(=N)N)C(=O)N[C@H](CCCCNC(=O)c1cccc(S(=O)(=O)F)c1)C(=O)N[C@H](Cc1ccc(O)cc1)C(=O)N[C@H](CO)C(=O)N[C@H](Cc1ccccc1)C(N)=O", "test": "ex vivo flow cytometry", "test system": "B16 tumour-bearing mice, tumour", "setting": "dose not given", "endpoint": "IFN-γ+ CD4+ T cell frequency", "result": "7.97% and 6.97% and 4.24% and 3% and 2.94%"}
{"SMILES": "CSCC[C@@H]1NC(=O)[C@H](Cc2c[nH]c3ccccc23)NC(=O)[C@@H](NC(=O)CCNC(=O)[C@H](CCC(N)=O)NC(=O)[C@@H]2CCCN2C(=O)[C@@H]2CCCN2C(=O)[C@H](CCCNC(=N)N)NC(=O)[C@H](CCCNC(=N)N)NC(=O)[C@H](CCCNC(=N)N)NC(=O)[C@H](CCC(N)=O)NC(=O)[C@H](CCCNC(=N)N)NC(=O)[C@H](CCCNC(=N)N)NC(=O)[C@H](CCCCN)NC(=O)[C@H](CCCCN)NC(=O)[C@H](CCCNC(=N)N)NC(=O)CN)CSSC[C@@H](C(=O)O)NC(=O)[C@H]([C@@H](C)O)NC(=O)CNC(=O)[C@H](CC(C)C)NC(=O)[C@H](Cc2c[nH]cn2)NC(=O)[C@H](CCCNC(=N)N)NC(=O)[C@@H]2CCCN2C(=O)[C@H](CO)NC1=O", "test": "immunohistochemistry", "test system": "NCI-H226 xenograft mouse, tumour tissue", "setting": "intravenous, 10 mg/kg, day 16", "endpoint": "CDC37 staining", "result": "0.11 IOD/area"}
{"SMILES": "CCCCC1(CCCC)CN(c2ccccc2)c2cc(SC)c(OCC(=O)N[C@@H](C(=O)NCC(=O)O)c3ccccc3)cc2S(=O)(=O)C1", "test": "item: HDL cholesterol", "test system": "human, serum", "setting": "10 mg once daily, day 13", "endpoint": "serum HDL-C", "result": "47 mg/dL"}
{"SMILES": "COc1ccc2c(c1)CC[C@@H]1[C@@H]2CC[C@]2(C)[C@@H](NCCCCCCN3C(=O)C=CC3=O)CC[C@@H]12", "test": "calcium response, plateau", "test system": "N2a, mouse", "setting": "1 µM, added: ATP 300 µM", "endpoint": "inhibition", "result": "45%"}
{"SMILES": "CC[C@H](C)[C@@H]1NC(=O)[C@@H]2CCCN2C(=O)[C@H](CC(C)C)NC(=O)[C@H](CC(C)C)NC(=O)CNC(=O)[C@@H](NC(=O)[C@@H](NC(=O)[C@H](CC(=O)O)NC(=O)CNC(=O)[C@@H](NC(=O)[C@H](C)NC(=O)CNC(=O)[C@H](CCCCN)NC(=O)[C@H](CC(C)C)NC(=O)[C@H](CC(C)C)NC(=O)[C@H](CCCCN)NC(=O)CNC(=O)[C@@H](NC(=O)[C@@H](N)CC(C)C)C(C)C)C(C)C)C(C)C)CSSC[C@@H](C(=O)O)NC1=O", "test": "RNA-seq, item: Junb mRNA", "test system": "mouse traumatic brain injury, frontal cortex and hippocampus", "setting": "dose not given", "scale": "baseline: TBI plus compound vs TBI", "endpoint": "log2 fold change", "result": -2.4}
{"SMILES": "CCCCC1CNC2CCc3ccc(OC)cc3C12.Cl (racemic)", "test": "memory retention, foot-shock T-maze avoidance", "test system": "SAMP8 mice", "setting": "intraperitoneal, 1.0 mg/kg daily", "scale": "baseline: vehicle", "endpoint": "trials to criterion", "result": "decreased"}
{"SMILES": "C[C@]12CC[C@H](O)C[C@H]1CC[C@@H]1[C@@H]2CC[C@]2(C)[C@@H](c3ccc(=O)oc3)CC[C@]12O", "test system": "female nude mouse LCC2 xenograft", "setting": "1.0 mg/kg, day 15, tamoxifen-resistant", "endpoint": "tumour volume", "result": "43.6 mm3 and 49.5 mm3 and 52.9 mm3 and 49.9 mm3 and 41.5 mm3 and 83.3 mm3 and 36.8 mm3"}
{"SMILES": "C[C@]1(CO)Cc2ncn(-c3ccc(C#N)c(Cl)c3)c2C(=O)O1", "test": "aldosterone synthesis, inhibitor, item: cortisol", "test system": "healthy Japanese adults, urine", "setting": "3 mg, 0-24 h after first dose, multiple rising dose", "endpoint": "urinary excretion", "result": "73 mmol"}
